Published values pooled from the literature.
Lines come from different studies, so protocols differ. “And” joins repeats or separate records; there may be more than shown. Numbers after ± are the reported error.

`CC(=O)[O][Pt]([NH2])([NH2])([Cl])([Cl])[O]C(=O)CCC(C)C1CCC2C3CCC4CC(O)CCC4(C)C3CCC12C` (centres unmarked) has an IC50 of 4300 ± 300 nM (RWPE-1 normal prostate; cell viability, MTT; 72 h).
The IC50 of `CCOc1cncc(-c2ccc(NC(=O)C3(c4ccnc(NS(=O)(=O)C5CC5)n4)CCOCC3)nc2)n1` is reported as 58 nM (lung cancer; cell viability, CellTiter-Glo; DMSO 0.1%; 72 h, line code 526).
With `CNS(=O)(=O)Nc1nccc(Cc2c(C)c3ccc(Oc4ncccc4F)cc3oc2=O)c1F` the IC50 was over 1000 nM (Kuramochi; cell viability, CellTiter-Glo; 7 days).
`CC(C)(C)c1cnc(CSc2cnc(NC(=O)C3CCN(C(=O)CCCCCCN4Cc5cc6c(cc5C4)C(=O)N(C4CCC(=O)NC4=O)C6=O)CC3)s2)o1` (centres unmarked) gave an IC50 of 12.5 ± 7.1 nM (RH5 rhabdomyosarcoma; cell viability, MTT).
With `COc1cc(-c2cc(C(C)=O)n3ccccc23)cc(OC)c1Cn1ccnc1` the IC50 was 230 nM (Kasumi 1; cell growth or viability, ATP luminescence).
With `CCCCCCCC(=O)[O][Pt]([Cl])([Cl])[O]C(=O)CCCCCCC.N.N` the IC50 was 730 ± 820 nM (A549/DDP cisplatin-resistant; MTT; 48 h, with: survivin siRNA 10 nM transfected 24 h before).
`C=CC(=O)N1CCCC(n2c(=O)c3ncccc3n(Cc3ccc(Oc4ccccc4)cc3)c2=O)C1` (centres unmarked) has an IC50 of 20000 nM (KARPAS-299; cell growth or viability, MTT; 72 h).
`O=C(Nc1cc(-c2ccnc3[nH]ccc23)c(Cl)cn1)[C@H]1CCC[C@@H](NC(=O)C(F)(F)F)C1` gave an IC50 of 25.5 nM (JeKo-1; cell growth or viability; 72 h).
`CCn1nc(Cl)c2c1-c1cnc(N)c(c1)O[C@H](C)c1cc(F)ccc1-c1nn(C)cc1C2` gave an IC50 of 2.27 nM (Ba/F3 EML4-ALK variant 1 S1206Y; cell viability).
`CC1(C)CC(=O)C2=C(C1)Oc1ccccc1C2Sc1ccccc1` (centres unmarked) gave an IC50 of 80.7 µg/mL (3T3-L1; cell growth or viability, MTT; 72 h).
`CN(C)CCCSc1nc(-c2ccccc2)nc2c1CCC2` gave a translation activity of 105% and 111% and 102% (Trypanosoma cruzi; reporter mRNA translation, inhibitor, refers to: capped polyadenylated Renilla luciferase mRNA; cell-free extract; concentration not given; relative to: positive over negative control).
`CCCCCC(=O)Oc1c(C)c(OC)c2c(/C=C/c3ccccc3)c(CCCC)c(=O)oc2c1C` gave an IC50 of over 50000 nM (FaDu; cell growth or viability, SRB; 72 h).
The IC50 of `CC(C)=CC1OC(C)(C)C2C=C3C(=O)C(Cl)=CC(O)C3C3C(O)C4OC4C(=O)C132` (centres unmarked) is reported as 3210 nM (BGC-823; cell growth or viability, MTS).
`COc1ccc(Oc2ccc(S(=O)(=O)Nc3ccc4c(c3)N(C)C(=O)C4)cc2)cc1` gave an IC50 of 16 nM (BV-2; PGE2 release, inhibitor; LPS-stimulated).
For `Cn1ncc(-c2ccc3c(=O)[nH]nc(CN)c3c2)c1-c1c(F)c(Cl)cc(OC2CC2)c1C#N`, the IC50 was 70 nM (NCI-H1648; cell viability, inhibitor, CellTiter-Glo; 120 h, baseline-subtracted).
`CN(CC1CCCN(CCc2cccc(C(F)(F)F)c2)C1)C(=O)c1ccco1` (centres unmarked) has a translation activity of 90.2% and 110% and 93.8% and 97.3% (Trypanosoma cruzi; reporter mRNA translation, inhibitor, refers to: capped polyadenylated Renilla luciferase mRNA; cell-free extract; concentration not given; relative to: positive over negative control).
`CC(C)c1ccc(N(C)c2ccc3c(c2)OCC[C@H]3CNc2cnccc2C(=O)O)cc1` has an IC50 of 146 nM (SNU-5; cell growth or viability, ATP luminescence; 7 days).

For quick reference, copied from above:
With `CNS(=O)(=O)Nc1nccc(Cc2c(C)c3ccc(Oc4ncccc4F)cc3oc2=O)c1F` the IC50 was over 1000 nM (Kuramochi; cell viability, CellTiter-Glo; 7 days).
For `Cn1ncc(-c2ccc3c(=O)[nH]nc(CN)c3c2)c1-c1c(F)c(Cl)cc(OC2CC2)c1C#N`, the IC50 was 70 nM (NCI-H1648; cell viability, inhibitor, CellTiter-Glo; 120 h, baseline-subtracted).
`CN(CC1CCCN(CCc2cccc(C(F)(F)F)c2)C1)C(=O)c1ccco1` (centres unmarked) has a translation activity of 90.2% and 110% and 93.8% and 97.3% (Trypanosoma cruzi; reporter mRNA translation, inhibitor, refers to: capped polyadenylated Renilla luciferase mRNA; cell-free extract; concentration not given; relative to: positive over negative control).
